Measurements of several laboratories.
Compare with care: the assays were run in different laboratories. “And” joins repeats or separate records; there may be more than shown. Numbers after ± are the reported error. Bridges are numbered along the chain shown (N, C = ends). Where no end group is shown, it is not given here.

| Substance | cell line | assay | system | conditions | scale | measurement | value |
| --- | --- | --- | --- | --- | --- | --- | --- |
| Nc1nc2cc(C(=O)O)ccc2cc1-c1ccccc1F | mouse fibroblasts | Western blot | conditioned medium | 500 nM, 24 h, unit not given | reference: Col1A1 | secreted Par-4 level | < 50 |
| CGLKIQKNEC (disulfide 1-10 (inferred)) (cyclic, disulfide) | proliferating HUVEC | cytotoxicity | – | 1 mg/mL, 24 h, 37 °C, 2% FBS | – | cell death | inactive |
| CC(C)C[C@H](NC(=O)[C@H](CCCCN)NC(=O)[C@H](CCCNC(=N)N)NC(=O)[C@@H]1CCCN1C(=O)[C@H](CCC(=O)O)NC(=O)CNC(=O)[C@H](Cc1ccc(O)cc1)NC(=O)[C@H](C)NC(=O)[C@@H](N)CO)C(=O)O | CD8+ T cells with peptide-pulsed DCs | – | – | concentration not given, 24 h | – | IFN-γ level | 177 ± 19.7 pg/mL |
| Clc1cccc(Cl)c1N=C1NCCN1 | TR-BBB | uptake | – | added: [3H]imperatorin | – | Ki | 1100 µM and 1000 µM |
| CN(C)c1ccc2cc(-c3ccccc3F)c(N3CCOCC3)nc2c1 | mouse fibroblasts | Western blot | conditioned medium | 500 nM, 24 h, unit not given | reference: Col1A1 | secreted Par-4 level | 54.4 ± 2.8 |
| N#Cc1c(-c2ccccc2)[nH]c2ccccc12 | RAW264.7 | sulforhodamine B | – | 50 µM, 20 h | reference: vehicle | viability | 82.1 ± 4.1% |
| CN(C)c1ccc2cc(-c3c(Cl)cccc3Cl)c(N)nc2c1 | mouse fibroblasts | Western blot | conditioned medium | 500 nM, 24 h, unit not given | reference: Col1A1 | secreted Par-4 level | 123 ± 1.6 |
| NC(=O)Cn1cc(COc2ccccc2-c2nc(-c3ccccc3)no2)nn1 | Caco-2 | qPCR, measured: EGFR | – | IC50, 24 h | reference: untreated cancer cells | mRNA level | 0.37 ± 0.08 fold |
| Clc1ccc(-c2cc3ccccc3[nH]2)cc1Cl | RAW264.7 | sulforhodamine B | – | 50 µM, 20 h | reference: vehicle | viability | 67.4 ± 2.8% |
| COC1C(O)[C@@H](COP(=O)(O)OP(=O)([S-])OP(=O)(O)OP(=O)(O)OC[C@H]2O[C@@H](n3cnc4c(=O)[nH]c(N)nc43)C(O)C2O)O[C@H]1n1c[n+](C)c2c(O)nc(N)nc21 (mixture of isomers) | human immature dendritic cells | reporter gene | – | cap on electroporated luciferase mRNA | reference: beta-S-ARCA D1 capped mRNA | relative translation efficiency | 0.53 ± 0.17 |
| COc1cccc2c1C(=O)c1c(O)c3c(c(O)c1C2=O)C[C@@](O)(C(=O)CO)C[C@@H]3O[C@H]1C[C@H](N)[C@H](O)[C@H](C)O1 | HS5 | cell viability | – | – | reference: 3D mono-culture over tissue chip | IC50 ratio | ~33 fold |
| COc1ccc(N(C)c2nc(C)nc3[nH]ccc23)cc1 | SK-OV-3 MDR-1-6/6 P-gp overexpressing | SRB | – | – | reference: SK-OV-3 parental over | relative resistance | 1.2 |
| CCCCCc1ccc(-c2cc3ccccc3[nH]2)cc1 | RAW264.7 | NO release, inhibitor, Griess | – | 50 µM, 20 h, LPS-stimulated | – | inhibition | 31.9% |
| CCn1cc(-c2cc(Cn3ccnc3)cc3c2CCN([C@@H](C)c2cc(OC)ccn2)C3=O)c(C(F)(F)F)n1 | MOLM-13 | cell growth or viability, ATP luminescence | – | 5 days | – | GI50 | 0.019 µM |
| CC(C)Oc1ccc(C(=O)Cn2ccnc2)cc1-n1c(CN2CCN(C(=O)COc3ccc(Cl)cc3)CC2)nc2ccccc2c1=O | SU-DHL-6 | RT-qPCR, measured: lipid metabolism genes | – | 500 nM | – | mRNA level | increased |
| CN(C)c1ccc2cc(-c3ccccc3F)c(=S)[nH]c2c1 | mouse fibroblasts | Western blot | conditioned medium | 500 nM, 24 h, unit not given | reference: Col1A1 | secreted Par-4 level | 51.7 ± 4.9 |
| NS(=O)(=O)c1ccc(Nc2nc3nccc(-c4ccccc4Cl)n3n2)cc1 | HD-MB03 and Daoy medulloblastoma | cell viability, resazurin | – | 10 µM, 72 h, hypoxia | reference: untreated | viability decrease | 20 to 35% |
| CN1CCC(CNc2ccc3ncc(-c4cccc(OC(F)(F)F)c4)n3n2)CC1 | 22Rv1-T | – | – | 2.5 µM, up to 72 h, added: paclitaxel 50 nM | – | viability decrease | ≤ 40% |

| Substance | cell line | assay | system | conditions | scale | measurement | value |
| --- | --- | --- | --- | --- | --- | --- | --- |
| C(=NOCc1ccccc1)c1c(-c2ccccc2)[nH]c2ccccc12 | RAW264.7 | sulforhodamine B | – | 50 µM, 20 h | reference: vehicle | viability | 59.2 ± 7.7% |
| CCCCC[C@H](CC(=O)NO)C(=O)N[C@H](C(=O)N1CCC[C@H]1CO)C(C)C | U-937 | cell proliferation | – | 13 µM, day 4, added: MK-571 10 µM | – | inhibition | 82.1 ± 3.4% |
| CC1(CCCNCC(c2ccccc2)c2ccccc2)CCc2cc(O)ccc2O1 (stereo not drawn) | TNBC cells | qRT-PCR | – | 15.6 µM | reference: DMSO | Bcl-2 mRNA level | decreased |
| Cc1ccc(C(=O)Nc2ccc(CN3CCN(C)CC3)c(C(F)(F)F)c2)cc1C#Cc1cnc2cccnn12 | K562 K562-WT | – | – | 48 h | – | GI50 | ~0.00015 µM |
| Nc1ccccc1C#Cc1cc(F)cc(F)c1 | RAW264.7 | NO release, inhibitor, Griess | – | 50 µM, 20 h, LPS-stimulated | – | inhibition | 97.4% |
| COc1cccc(-c2ccnc3nc(Nc4ccc(S(N)(=O)=O)cc4)nn23)c1 | HD-MB03 and Daoy medulloblastoma | cell viability, resazurin | – | 10 µM, 72 h, hypoxia | reference: untreated | viability decrease | 50 to 60% |
| Cn1cc(Nc2nccc(-c3ccc4c(c3)CN(C3COC3)CC[C@H]4NC(=O)c3cn(C(C)(C)C)nn3)n2)cn1 | human B cells | measured: stimulation-induced genes | – | 100 nM, 64 h, added: anti-IgM + CD40L + IL-21 | – | inhibition of gene upregulation | 23% |
| CNC(=O)c1ccc(N2C(=S)N(c3ccc(C#N)c(C(F)(F)F)c3)C(=O)C2(C)C)cc1F | LNCaP | PSA expression, antagonist | – | 1 day, charcoal-stripped serum 3 days, added: 1 nM DHT | – | Ki | 0.0308 µM |
| O=C(CCCc1cc(C(=O)NO)no1)Nc1nc(-c2ccccc2)cs1 | BXPC-3 | cell growth or viability, MTS | – | 72 h | – | GI50 | 1.5 µM |
| O=C1OC2(c3cc(I)c(O)c(I)c3Oc3c2cc(I)c(O)c3I)c2c(Cl)c(Cl)c(Cl)c(Cl)c21 | red blood cells | bright-field and fluorescence microscopy | – | concentration not given, irradiation beyond lysis | – | ghost morphology | no effect |
| c1ccc2[nH]c(-c3ccsc3)cc2c1 | RAW264.7 | sulforhodamine B | – | 50 µM, 20 h | reference: vehicle | viability | 90.6 ± 2.6% |
| O=C(CCc1cc(C(=O)NO)no1)Nc1nc(-c2ccccc2)cs1 | BXPC-3 | cell growth or viability, MTS | – | 72 h | – | GI50 | 2.3 µM |
| CCn1c(=O)c(-c2cc(NC(=O)Nc3ccccc3)c(F)cc2Br)cc2cnc(NC)cc21 | HMC1 (KIT wild-type) | cell growth | – | – | – | GI50 | 0.26 µM |
| O=C(Cn1cc(COc2ccccc2-c2nc(Cc3ccccc3)no2)nn1)NNC(=S)Nc1ccccc1 | Caco-2 | qPCR, measured: mTOR | – | IC50, 24 h | reference: untreated cancer cells | mRNA level | 0.365 ± 0.01 fold |
| COc1cccc(-c2cc3ccccc3[nH]2)c1 | RAW264.7 | sulforhodamine B | – | 50 µM, 20 h | reference: vehicle | viability | 92.8 ± 6.4% |
| Oc1nc(-c2ccc(C(F)(F)F)cc2)nc2c1CSCC2 | HEK293T | Wnt/β-catenin signalling, TOPFLASH luciferase | – | 20 µM, 24 h, added: Wnt-3a 100 ng/mL | reference: Wnt-3a-stimulated control | reporter activity | 30% |
| CC1(C)CC(=O)C2=C(C1)Nc1cc(C(=O)c3ccccc3)ccc1NC2c1ccc(N2CCCC2)cc1 (stereo not drawn) | SH-SY5Y | cell growth or viability, MTS | – | – | – | EC50 | 12.3 µM |
| CC(C)=CCn1c(-c2ccccc2)cc2ccccc21 | RAW264.7 | sulforhodamine B | – | 50 µM, 20 h | reference: vehicle | viability | 75.6 ± 4.7% |

For quick reference, copied from above:
| Substance | cell line | assay | system | conditions | scale | measurement | value |
| --- | --- | --- | --- | --- | --- | --- | --- |
| O=C(CCc1cc(C(=O)NO)no1)Nc1nc(-c2ccccc2)cs1 | BXPC-3 | cell growth or viability, MTS | – | 72 h | – | GI50 | 2.3 µM |
| CN1CCC(CNc2ccc3ncc(-c4cccc(OC(F)(F)F)c4)n3n2)CC1 | 22Rv1-T | – | – | 2.5 µM, up to 72 h, added: paclitaxel 50 nM | – | viability decrease | ≤ 40% |
| CC(C)=CCn1c(-c2ccccc2)cc2ccccc21 | RAW264.7 | sulforhodamine B | – | 50 µM, 20 h | reference: vehicle | viability | 75.6 ± 4.7% |
| CN(C)c1ccc2cc(-c3ccccc3F)c(=S)[nH]c2c1 | mouse fibroblasts | Western blot | conditioned medium | 500 nM, 24 h, unit not given | reference: Col1A1 | secreted Par-4 level | 51.7 ± 4.9 |
